Measured values collected from several papers.
Each numbered part is a random draw from the data of one study; scales do not carry over between parts. Positions count from the first letter of the parent shown.

Block 1
Target: CCNA1, cyclin fold, Cln2 fusion (human)
Method: yeast growth competition, sequencing
Sample: yeast
Notes: weak parent motif
Relative to: not given
Direction: higher = stronger binding
Measurement: normalised enrichment score
Parent: SCAPER docking peptide (human); SNARRSLNFGGST
SNAIRSLNFGGST [R4I]: 0.387
SNARLSLNFGGST [R5L]: 0.315
SNARRSLNTGGST [F9T]: 0.321
SNASRSLNFGGST [R4S]: 0.0218
SNAPRSLNFGGST [R4P]: 0.105
SNARRSLNFGGSA [T13A]: 0.618
SNARRSLNVGGST [F9V]: 0.147
KNARRSLNFGGST [S1K]: 0.277
SNARRSLNFGGMT [S12M]: 0.273
SNARRSLNFGGYT [S12Y]: 0.373
SMARRSLNFGGST [N2M]: 0.33
SWARRSLNFGGST [N2W]: 0.532
SNAHRSLNFGGST [R4H]: 0.354
SNARRSLNFGGGT [S12G]: 0.632
SNARRRLNFGGST [S6R]: 0.467
SDARRSLNFGGST [N2D]: 0.412
SNAVRSLNFGGST [R4V]: 0.206
SNARRSLQFGGST [N8Q]: 0.562
SNARRLLNFGGST [S6L]: 0.379
SNARRSINFGGST [L7I]: 0.3
SNARRPLNFGGST [S6P]: 0.559
SNARRSLNFGGIT [S12I]: 0.733
STARRSLNFGGST [N2T]: 0.693
SAARRSLNFGGST [N2A]: 0.67
SNARRSLHFGGST [N8H]: 0.624

Block 2
Target: ABI1, truncated, D143A, DHFR fusion (Arabidopsis thaliana)
Method: DHFR PCA, deep sequencing
Sample: yeast
Notes: methotrexate growth selection, single substitutions
With: (+)-ABA 1.4 µM
Relative to: wild-type fitted maximum
Direction: higher = stronger binding
Measurement: relative binding score
Parent: PYL1, truncated, DHFR fusion (Arabidopsis thaliana); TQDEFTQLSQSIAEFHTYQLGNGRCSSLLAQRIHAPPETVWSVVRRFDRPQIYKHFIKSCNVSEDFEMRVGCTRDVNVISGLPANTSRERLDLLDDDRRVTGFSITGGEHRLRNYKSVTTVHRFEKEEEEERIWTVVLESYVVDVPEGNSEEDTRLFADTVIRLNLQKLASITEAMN
S104A: 3.21%
E89I: 1.49%
G81E: -4.98%
R88E: 49.1%
F157G: -12.5%
I105P: -13.9%
W134V: 55%
K54F: -6.9%
P36L: 37.8%
H34T: 12.1%
R132N: 81.7%
K126V: 71.9%
I133Y: 41.4%
D92T: 19.1%
S27D: 31%
G81V: -6.02%
E67N: 44.6%
R45I: -21.6%
Y18K: 0.518%
F15D: -0.106%
R49G: 1.67%

Block 3
Target: MAFK, bZIP domain (human)
Method: DHFR protein complementation
Sample: yeast
Notes: single substitutions, most at no-binding floor
Relative to: wild-type JUN-FOS pair
Direction: higher = stronger binding
Measurement: binding fitness
Parent: JUN, bZIP domain (human); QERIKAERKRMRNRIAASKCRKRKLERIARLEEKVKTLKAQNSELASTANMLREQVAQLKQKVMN; partner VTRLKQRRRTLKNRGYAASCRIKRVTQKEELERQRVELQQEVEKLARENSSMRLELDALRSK
R30L: -1.39 natural log
R53H: -1.52 natural log
K39T: -1.41 natural log
E32S: -1.48 natural log
K36D: -1.55 natural log
I28C: -1.45 natural log
E54Y: -1.3 natural log
I28D: -1.61 natural log
A46F: -1.55 natural log
N42W: -1.44 natural log
A49S: -1.45 natural log
S47G: -1.44 natural log
S43C: -1.5 natural log
R30K: -1.5 natural log
V35Y: -1.49 natural log
K34F: -1.49 natural log
I28Y: -1.43 natural log
T37I: -1.4 natural log
V56K: -1.51 natural log
R53Q: -1.46 natural log
K36C: -1.44 natural log
K39F: -1.54 natural log
L45G: -1.45 natural log
L52R: -1.46 natural log
L38N: -1.47 natural log

Block 4
Target: Prothrombin, mature alpha-thrombin (F2, Homo sapiens, UniProt P00734)
Method: aptamer microarray, sandwich
Form: DNA with 2'F-ANA
Sample: in vitro
Concentration: 200 nM
Notes: whole 15-mer aptamer, many near background
With: Cy3 exosite-II aptamer, 400 nM
Direction: higher = stronger binding
Measurement: mean fluorescence intensity
Oligonucleotide: GGTTGGTGTGGTTGG
2'F-ANA at 3 8 10 11 13 15: 457 a.u.
2'F-ANA at 1 2 4 7 8 9 11 12 15: 226 a.u.
2'F-ANA at 3 4 7 9 12 14: 344 a.u.
2'F-ANA at 1 2 3 5 6 7 8 9 10 11 12 13 14 15: 50.8 a.u.
2'F-ANA at 4 10 12 13 15: 85.9 a.u.
2'F-ANA at 1 3 4 6 7 8 9 11 12 13 14 15: 77.5 a.u.
2'F-ANA at 4 5 7 11 12 14 15: 203 a.u.
2'F-ANA at 5 10 11 12 14 15: 48.4 a.u.
2'F-ANA at 6 7 9: 439 a.u.
2'F-ANA at 1 2 6 8 13: 125 a.u.
2'F-ANA at 1 6 7 10 13 15: 50.5 a.u.
2'F-ANA at 1 2 5 8 14 15: 83.2 a.u.
2'F-ANA at 1 3 6 8 9 12: 531 a.u.
2'F-ANA at 1 2 4 8 12 13 15: 249 a.u.
2'F-ANA at 1 2 3 10 13 14: 52.4 a.u.
2'F-ANA at 1 4 5 7 8 9 13 14: 58.5 a.u.
2'F-ANA at 1 3 4 5 8 11 13 14: 52.9 a.u.
2'F-ANA at 2 6 8 10 15: 131 a.u.
2'F-ANA at 2 4 10 11 12 15: 120 a.u.
2'F-ANA at 1 5 8 10 11 12: 304 a.u.
2'F-ANA at 1 2 4 6 7 9 10 11 13 15: 51.6 a.u.
2'F-ANA at 4 5 6 8 12 14 15: 47.5 a.u.
2'F-ANA at 2 3 5 7 11 12 14: 75.3 a.u.
2'F-ANA at 2 3 6 7 9 10 11 12 13: 314 a.u.
2'F-ANA at 2 3 9 11 13 15: 588 a.u.

Block 5
Target: RING finger protein unkempt homolog, zinc fingers 1-6, GST-SBP tag (UNK, Homo sapiens, UniProt Q9C0B0, residues 30-357)
Method: RNA Bind-n-Seq
Form: RNA
Sample: in vitro
Concentration: not given
Notes: RNA with constant flanks, human and mouse sites, ends assumed
Relative to: input RNA pool
Direction: higher = stronger binding
Measurement: bound/input enrichment
All sequences stand within: GGGAGUUCUACAGUCCGACGAUC … CAACAGAGGAUUGAGCAUCA
Residues (chain): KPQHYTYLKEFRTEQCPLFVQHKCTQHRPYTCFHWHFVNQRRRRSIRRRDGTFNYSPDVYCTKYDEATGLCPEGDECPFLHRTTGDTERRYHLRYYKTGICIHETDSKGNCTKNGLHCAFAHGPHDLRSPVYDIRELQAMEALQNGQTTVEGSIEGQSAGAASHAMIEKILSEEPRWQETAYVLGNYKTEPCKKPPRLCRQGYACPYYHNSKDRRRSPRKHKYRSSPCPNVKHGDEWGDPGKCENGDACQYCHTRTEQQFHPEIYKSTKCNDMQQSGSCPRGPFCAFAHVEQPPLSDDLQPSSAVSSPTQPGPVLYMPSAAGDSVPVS
CCUCCUUAUGCAAACGGUGACCCUCAUGUUGGACAUGCUUUAAAUAAGAUUUUGAAAGACAUAGCCAAUCGAUUCCAUAUGAUGAAUGGCUCCAAAAUACAUUUUGUGCCCGGCUGGGAU: 0.217 ratio
GCCAGAGAGGACGUUUCCAACUCAAAAAUGCAGGCUCAACAGUACCAGCAGCAGCGUCGAAAAUUUGCAGCUGCCUUCUUGGCAUUCAUUUUCAUACUGGCAGCUGUGGAUACUGCUGAA: 0.163 ratio
CUCCAAGAAGAUACUCUAUCCGAUGUUGCUCCUCCCAGAGAUAUGUCCUUAUAUGCCUCACUCACCUCUGAAAAAGUGCAAAGUCUGGAAGGAGAGAAGCUCUCUCCAAAAUCUGAUAUC: 0.436 ratio
GGGCUGUCAGACCAGACUUCUAUCCUGUCCAACCUGCCUUCAUUUCAGUCUUUCCACAUUGUUAUUCUGGGUUUGGACUGUGCUGGAAAGACAACUGUCUUAUACAGGCUGCAGUUCAAU: 0.212 ratio
CUGUACUGGAAGCAUGCUCCAAAGACCUGUAAGAACUUUGCUGAGUUGGCUCGUCGAGGUUACUACAAUGGCACAAAAUUCCACAGAAUUAUCAAAGACUUCAUGAUCCAAGGAGGUGAC: 0.185 ratio
GAAGAUGCGGCAUCCUAUGUUAGAAAGGUUAUACCAAAAGAUUACAAGACAAUGGCCGCUUUAGCCAAAGCCAUUGAAAAGAAUGUGCUGUUUUCACAUCUUGAUGAUAAUGAGAGAAGU: 0.767 ratio
CCCCUCAUUUGACCUUUCACCUCUGUCUGUUGGAAGCAGUACUUUUUACUGCCUCAUUGUCUUCUGUACAUCUUACUGGGUUUAAUUAAAAAAAAAGAAAAAACUCUGUUGUAAAAACAG: 0.501 ratio
GUUGCCAGCUUCCGGUUCCGUUGGGCUCGGUUCUCUCCUGAGCUACGUGUCUCUACGCUCUCAAUCCGCCAUCCAACAAACAUGGAUCAGGUAAUGCAGUUUGUGGAGCCCAGCCGGCAG: 0.0925 ratio
UUUGUAAAUUUCUCCGAGCAGAAAGAAAAGUUAAUAAAGCGUCAAGAAGAGUUAGAUAGGGGUUACAAAUCAAUCAUGGAACUGAUGAAUGUACUUGAACUUCGGAAAUAUGAAGCUAUU: 1.19 ratio
UUGGAAGAAGUCAAAGUAAGCAGAGAGAUGGACAGGGAAACACUUAUAGAUGUGGCCAGAACAUCUCUUCGUACUAAAGUUCAUGCUGAACUUGCAGAUGUCUUAACAGAGGCUGUAGUG: 0.247 ratio
AAGAACAAACAGAAAGAGGAUGUUGACAAGAUGGAGAAUUCUGAAAUGAUAAAGACCAUGAAAAAAAAACUACAGACGGAGAUAAAGAUCACUACAGUUGUUCAACAUACAUUCCAGGGC: 0.181 ratio

Excerpt of the above (block 2):
S104A: 3.21%
E89I: 1.49%
G81E: -4.98%
R88E: 49.1%
F157G: -12.5%
I105P: -13.9%
W134V: 55%
K54F: -6.9%
P36L: 37.8%
H34T: 12.1%
R132N: 81.7%
K126V: 71.9%
I133Y: 41.4%
D92T: 19.1%
S27D: 31%
G81V: -6.02%
E67N: 44.6%
